Assay results of several laboratories.
Compare with care: the assays were run in different laboratories. ± marks the error that the study gave.
Cell line: HEK293

SMILES | assay | setting | IC50
C=C[CH2][Pd-]([Cl])[Cl].Cc1cc(C)c(-n2c[n+](-c3c(C)cc(C)cc3C)c3c2-c2cccc4cccc-3c24)c(C)c1 | cell growth or viability, MTT | 72 h | 1.8 µM
CC(=O)[C@@H]1CCCN1C(=O)[C@@H]1CCCN1C(=O)[C@H](Cc1ccccc1)NC(=O)OC(C)(C)C | cell growth or viability, SRB |  | 273 µM
CCN(CC)CCN1C(=O)c2ccc3c4cccc5c(N6CCNCC6)ccc(c6ccc(c2c36)C1=O)c54 | cell growth or viability, SRB | 72 h | 197 µM
CC(C)Cc1ccc(C(C)C(=O)[O][Pt]([NH2])([NH2])([Cl])([Cl])[O]C(=O)C(Cl)Cl)cc1 (stereo not drawn) | cell growth or viability, MTT | 72 h | 0.07 µM
COC(=O)[C@@H]1CCCN1C(=O)[C@H](C)N(C)C(=O)OC(C)(C)C | cell growth or viability, SRB |  | 2450 µM
FC(F)(F)c1c(-c2ccc(Br)cc2)noc1-c1cccs1 | cell growth or viability, MTT | 48 h | 112 µM
Cc1ccc(C(C)C)cc1.Cl.[Cl][Ru+].[Ru+].c1ccc(-c2cn(CCCCOc3ccccc3-c3nc4ccccc4s3)nn2)nc1 | cytotoxicity, MTT | 48 h | 85.6 ± 2.5 µM
CC(C)c1cccc(C(C)C)c1-n1c2c([n+](-c3c(C(C)C)cccc3C(C)C)[c]1[Au-][Cl])-c1cccc3cccc-2c13 | cell growth or viability, MTT | 72 h | 31 µM
CCCCCCCCCCCCCCCCCCOc1c(O)cc(C(=O)O[C@@H]2Cc3c(O)cc(O)cc3O[C@@H]2c2cc(O)c(O)c(O)c2)cc1O | cell growth or viability, CCK-8 | 24 h | > 150 µM
Cc1ccc(-c2noc(-c3cccs3)c2C(F)(F)F)cc1 | cell growth or viability, MTT | 48 h | 110 µM
CC(C)C[C@H](NC(=O)[C@@H](Cc1c[nH]c2ccccc12)NC(=O)[C@H](Cc1ccc(O)cc1)NC(=O)[C@H](CO)NC(=O)[C@H](Cc1c[nH]c2ccccc12)NC(=O)[C@H](Cc1c[nH]cn1)NC(=O)[C@@H]1CCC(=O)N1)C(=O)N[C@@H](CCCNC(=N)N)C(=O)N1CCC[C@H]1C(=O)NCC(N)=O | cell growth or viability, SRB |  | 0.0004 µM
COc1ccc(CN2C(=O)C(=O)c3cc(NC(C)=O)ccc32)cc1 | cytotoxicity, MTT | 48 h | 17.6 ± 5.07 µM
CC(=O)OC[C@H]1O[C@@H](n2cc(CSc3nc4ccccc4n3Cc3cn([C@@H]4O[C@H](COC(C)=O)[C@@H](OC(C)=O)C(OC(C)=O)[C@H]4OC(C)=O)nn3)nn2)[C@H](OC(C)=O)C(OC(C)=O)[C@@H]1OC(C)=O (stereo in doubt) | cell growth or viability, MTT |  | 12.5 µg/mL
Cc1nc(-c2ccc(Cl)cc2)nc(N2CCC(C)(N)CC2)c1Cc1ccccc1 | cell growth or viability, WST-1 | 72 h | 4.5 µM
O=C1c2ccc3c4ccc5c6c(ccc(c7ccc(c2c37)C(=O)N1CCN1CCCCC1)c64)C(=O)N(CCN1CCCCC1)C5=O | cell growth or viability, SRB | 72 h | 278 µM
CN1CCCNC(=O)CC2(CCCCC2)CC(=O)NCCCN(C)CCCNc2cccc3c2C(=O)c2cccc(c2C3=O)NCCC1 | cell growth or viability, CCK-8 | 48 h | 6.3 µM
CCCCCCCCOc1c(O)cc(C(=O)O[C@@H]2Cc3c(O)cc(O)cc3O[C@@H]2c2cc(O)c(O)c(O)c2)cc1O | cell growth or viability, CCK-8 | 24 h | > 150 µM
CCCCCCCCCCCCCCCC(=O)N[C@@H](CCCCN)C(=O)N[C@@H](CCCCN)C(=O)N[C@@H](CCCCN)C(=O)N[C@@H](CCCCN)C(=O)N[C@@H](CCCCN)C(N)=O | cell growth or viability, resazurin |  | > 32 µg/mL

For quick reference, copied from above:
SMILES | assay | setting | IC50
FC(F)(F)c1c(-c2ccc(Br)cc2)noc1-c1cccs1 | cell growth or viability, MTT | 48 h | 112 µM
Cc1ccc(C(C)C)cc1.Cl.[Cl][Ru+].[Ru+].c1ccc(-c2cn(CCCCOc3ccccc3-c3nc4ccccc4s3)nn2)nc1 | cytotoxicity, MTT | 48 h | 85.6 ± 2.5 µM
